# Measured values from different studies.
# Protocols differ between the studies behind these lines. Numbers after ± are the reported error.
Structure (SMILES),assay,system,setting,AUC(0-inf)
CC(=O)N[C@H]1CC[C@H](NC(=O)CN2CCN(c3nncc(-c4ccc(C)cc4)n3)CC2)CC1,,"men aged ≥65 years, plasma","oral, 100 mg single dose, fasted",4780 ng·h/mL
CCc1nc2c(C)cc(N3CCN(CC(=O)N4CC(O)C4)CC3)cn2c1N(C)c1nc(-c2ccc(F)cc2)c(C#N)s1,,"healthy volunteers, plasma","oral, 600 mg once daily multiple doses",54600 ng·h/mL
C[C@H]1CN(C(=O)CC#N)[C@]12CCN(c1ncnc3[nH]ccc13)C2,,healthy Japanese males,"oral, 100 mg single dose, mean",3210 ng·h/mL
OC[C@H]1O[C@@H](c2cc(Cc3ccc(C4CC4)cc3)c(Cl)c3c2CCO3)[C@H](O)[C@@H](O)[C@@H]1O,,"healthy Korean adults, fasted, plasma","oral, 0.3 mg single dose, fixed-dose combination tablet, with: co-administered drug 50 mg",38.1 ± 11.5 ng·h/mL
Oc1ccc([C@@H](O)c2cc(-c3ncnc4cc(N5CCOCC5)ccc34)c(F)cc2Cl)nn1,geometric mean,"healthy volunteers, plasma","oral, 100 mg, high-fat fed tablet",454 ng·h/mL
O=C(c1ccccc1)c1ccc2n1CCC2C(=O)O (stereo not shown),,"New Zealand White rabbit, male, plasma","oral, 10 mg/kg drug equivalent",137000 ± 2170 ng·h/mL
COc1cc(C(=O)NC2CCN(C)CC2)c(F)cc1Nc1ncc(C(F)(F)F)c(Oc2cccc3c2C(=O)N(C)C3)n1,,"cancer patients, plasma","oral, 100 mg single dose, cycle 1 day 1, geometric mean",23 µM·h
C=CC(=O)NC1CCN(c2ncc3ncnc(Nc4ccc(Oc5ccc6c(c5)ncn6C)c(C)c4)c3n2)CC1,item: total radioactivity,"healthy male volunteers, plasma","intravenous, 100 µg, 14C microtracer, geometric mean",0.00362 µM·h
Cc1c(C(=O)O)ccc2c3n(nc12)[C@@H]1[C@H](C3)N(CC2CC2)[C@@]2(C(=O)Nc3cc(Cl)ccc32)[C@H]1c1cccc(Cl)c1F,,"cancer patients, plasma","oral, 45 mg every 3 weeks, geometric mean",173 µM·h
O=C(c1cccnc1-c1ccncc1)N1CCC(O)(Cc2ccccc2)CC1,,"healthy Japanese adults, plasma","oral, 200 mg single dose",720 ng·h/mL
CCCCCCCCCCCCCCCC(=O)N[C@@H](CCC(=O)NCCCC[C@@H]1NC(=O)[C@H]([C@@H](C)CC)NC(=O)[C@@H](NC(=O)[C@@H]2CCCN2C(=O)[C@H](Cc2ccccc2)NC(=O)[C@H](Cc2c[nH]cn2)NC(=O)[C@@H](NC(=O)[C@H](CC(=O)O)NC(=O)CC(C)C)[C@@H](C)O)CSSC[C@@H](C(=O)N[C@@H](CCCCN)C(N)=O)NC(=O)CNC(=O)[C@H](CCCCN)NC(=O)[C@H](CO)NC(=O)[C@H](CCCNC(=N)N)NC(=O)[C@@H]2CCCN2C(=O)[C@H](CCC(=O)O)NC(=O)[C@H](Cc2ccccc2)NC1=O)C(=O)O,,"healthy volunteers, plasma","subcutaneous, 20 mg single, lyophilised formulation",21600 ± 5130 ng·h/mL
CS(=O)(=O)n1cc2c(n1)CN([C@H]1CO[C@H](c3cc(F)ccc3F)[C@@H](N)C1)C2,,"healthy Japanese men, plasma","oral, 10 mg, fed, single dose",10.1 µM·h
CCCS(=O)(=O)N[C@H]1C[C@@H](N(C)c2ncnc3[nH]ccc23)C1,,"healthy volunteers, plasma, total","oral, 100 mg single dose, alone",1580 ng·h/mL
CC(=O)O[C@@]12CO[C@@H]1C[C@H](O)[C@@]1(C)C(=O)[C@H](O)C3=C(C)[C@@H](OC(=O)[C@H](O)[C@@H](NC(=O)OC(C)(C)C)c4ccccc4)C[C@@](O)([C@@H](OC(=O)c4ccccc4)[C@H]21)C3(C)C,,"patients, plasma","intravenous, dose not given, without co-administered drug",1110 ng·h/mL
CCCCC[C@H](O)CC[C@@H]1[C@H]2Cc3cccc(OCC(=O)O)c3C[C@H]2C[C@H]1O,,"healthy Japanese adults, plasma","inhaled, 36 µg single dose, scaled by body weight/60 kg",0.69 ± 0.15 ng·h/mL
N[C@@H](CC(=O)N1CCc2c(nc(C(F)(F)F)nc2C(F)(F)F)C1)CN1CC(F)(F)CCC1=O,,"healthy Korean adults, fasted, plasma","oral, 50 mg single dose, fixed-dose combination tablet, with: enavogliflozin 0.3 mg",1410 ± 229 ng·h/mL
COc1ccc2[nH]c([S+]([O-])Cc3ncc(C)c(OC)c3C)nc2c1 (stereo not shown),,"healthy Chinese volunteers, plasma","oral, 20 mg, enteric-coated capsules, CYP2C19 poor metabolizers",3880 ± 1320 ng·h/mL
CS(=O)(=O)c1ccc([C@@H](O)[C@@H](CF)NC(=O)C(Cl)Cl)cc1,,"Arbor Acres chickens, plasma","oral, 20 mg/kg, with: quercetin 60 mg/kg pretreatment",43500 ± 3440 ng·h/mL
CCCCC1=NC2(CCCC2)C(=O)N1Cc1ccc(-c2ccccc2S(=O)(=O)Nc2noc(C)c2C)c(COCC)c1,,"healthy adult volunteers, plasma","oral, 800 mg, single dose, fasted, crushed tablet",161000 ng·h/mL
C[C@@H](N)C1CCN(S(=O)(=O)c2cccc3cnccc23)CC1,,"healthy volunteers, fasted, plasma","oral, 75 mg",15.2 ng·h/mL
CC(C)c1nc(N(C)S(C)(=O)=O)nc(-c2ccc(F)cc2)c1/C=C/[C@@H](O)C[C@@H](O)CC(=O)O,,"healthy volunteers, plasma","oral, 10 mg single dose, day 1, given alone, BCRP probe",39.9 ng·h/mL
CC[C@H](C)CCCCC(=O)N[C@@H](CCN)C(=O)N[C@H](C(=O)N[C@@H](CCN)C(=O)N[C@H]1CCNC(=O)[C@H]([C@@H](C)O)NC(=O)[C@H](CCN)NC(=O)[C@H](CCN)NC(=O)[C@H](CC(C)C)NC(=O)[C@@H](Cc2ccccc2)NC(=O)[C@H](CCN)NC1=O)[C@@H](C)O,,"ESKD on long-term intermittent haemodialysis, plasma","intravenous infusion, 0.75 mg/kg single dose over 1 h, arithmetic mean",32300 ng·h/mL

# Some of these lines once more:
Structure (SMILES),assay,system,setting,AUC(0-inf)
Cc1c(C(=O)O)ccc2c3n(nc12)[C@@H]1[C@H](C3)N(CC2CC2)[C@@]2(C(=O)Nc3cc(Cl)ccc32)[C@H]1c1cccc(Cl)c1F,,"cancer patients, plasma","oral, 45 mg every 3 weeks, geometric mean",173 µM·h
C[C@H]1CN(C(=O)CC#N)[C@]12CCN(c1ncnc3[nH]ccc13)C2,,healthy Japanese males,"oral, 100 mg single dose, mean",3210 ng·h/mL
